Measured values of several laboratories.
Lines come from different studies, so protocols differ. Numbers after ± are the reported error.
UniProt P32241, sequence (whole entry, looked up): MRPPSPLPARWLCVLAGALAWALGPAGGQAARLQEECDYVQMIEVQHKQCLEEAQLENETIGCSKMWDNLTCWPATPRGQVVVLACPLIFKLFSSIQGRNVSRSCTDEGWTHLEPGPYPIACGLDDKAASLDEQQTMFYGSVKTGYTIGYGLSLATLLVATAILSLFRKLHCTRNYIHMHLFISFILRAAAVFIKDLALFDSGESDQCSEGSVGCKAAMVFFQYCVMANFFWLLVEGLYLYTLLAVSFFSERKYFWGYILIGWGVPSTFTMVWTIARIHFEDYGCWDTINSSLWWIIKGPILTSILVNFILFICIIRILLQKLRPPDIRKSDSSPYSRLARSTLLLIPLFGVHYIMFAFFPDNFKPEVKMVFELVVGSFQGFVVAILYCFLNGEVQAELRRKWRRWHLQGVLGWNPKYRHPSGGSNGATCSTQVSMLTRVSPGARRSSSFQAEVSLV
UniProt P11509, sequence (whole entry, looked up): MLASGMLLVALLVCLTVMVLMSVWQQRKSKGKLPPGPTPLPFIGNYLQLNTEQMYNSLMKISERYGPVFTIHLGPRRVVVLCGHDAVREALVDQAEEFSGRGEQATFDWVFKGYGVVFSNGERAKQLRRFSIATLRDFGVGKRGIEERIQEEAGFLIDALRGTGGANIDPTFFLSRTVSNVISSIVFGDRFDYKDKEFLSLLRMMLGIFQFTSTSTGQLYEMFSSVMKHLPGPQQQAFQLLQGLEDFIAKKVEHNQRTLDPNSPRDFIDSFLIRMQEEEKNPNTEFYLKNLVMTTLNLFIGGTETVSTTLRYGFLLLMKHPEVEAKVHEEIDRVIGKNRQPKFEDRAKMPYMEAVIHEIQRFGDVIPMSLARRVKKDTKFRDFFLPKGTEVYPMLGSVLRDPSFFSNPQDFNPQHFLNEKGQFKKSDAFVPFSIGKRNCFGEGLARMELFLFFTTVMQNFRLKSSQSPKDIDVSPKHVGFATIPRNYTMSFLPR
UniProt Q15746, sequence (whole entry, looked up): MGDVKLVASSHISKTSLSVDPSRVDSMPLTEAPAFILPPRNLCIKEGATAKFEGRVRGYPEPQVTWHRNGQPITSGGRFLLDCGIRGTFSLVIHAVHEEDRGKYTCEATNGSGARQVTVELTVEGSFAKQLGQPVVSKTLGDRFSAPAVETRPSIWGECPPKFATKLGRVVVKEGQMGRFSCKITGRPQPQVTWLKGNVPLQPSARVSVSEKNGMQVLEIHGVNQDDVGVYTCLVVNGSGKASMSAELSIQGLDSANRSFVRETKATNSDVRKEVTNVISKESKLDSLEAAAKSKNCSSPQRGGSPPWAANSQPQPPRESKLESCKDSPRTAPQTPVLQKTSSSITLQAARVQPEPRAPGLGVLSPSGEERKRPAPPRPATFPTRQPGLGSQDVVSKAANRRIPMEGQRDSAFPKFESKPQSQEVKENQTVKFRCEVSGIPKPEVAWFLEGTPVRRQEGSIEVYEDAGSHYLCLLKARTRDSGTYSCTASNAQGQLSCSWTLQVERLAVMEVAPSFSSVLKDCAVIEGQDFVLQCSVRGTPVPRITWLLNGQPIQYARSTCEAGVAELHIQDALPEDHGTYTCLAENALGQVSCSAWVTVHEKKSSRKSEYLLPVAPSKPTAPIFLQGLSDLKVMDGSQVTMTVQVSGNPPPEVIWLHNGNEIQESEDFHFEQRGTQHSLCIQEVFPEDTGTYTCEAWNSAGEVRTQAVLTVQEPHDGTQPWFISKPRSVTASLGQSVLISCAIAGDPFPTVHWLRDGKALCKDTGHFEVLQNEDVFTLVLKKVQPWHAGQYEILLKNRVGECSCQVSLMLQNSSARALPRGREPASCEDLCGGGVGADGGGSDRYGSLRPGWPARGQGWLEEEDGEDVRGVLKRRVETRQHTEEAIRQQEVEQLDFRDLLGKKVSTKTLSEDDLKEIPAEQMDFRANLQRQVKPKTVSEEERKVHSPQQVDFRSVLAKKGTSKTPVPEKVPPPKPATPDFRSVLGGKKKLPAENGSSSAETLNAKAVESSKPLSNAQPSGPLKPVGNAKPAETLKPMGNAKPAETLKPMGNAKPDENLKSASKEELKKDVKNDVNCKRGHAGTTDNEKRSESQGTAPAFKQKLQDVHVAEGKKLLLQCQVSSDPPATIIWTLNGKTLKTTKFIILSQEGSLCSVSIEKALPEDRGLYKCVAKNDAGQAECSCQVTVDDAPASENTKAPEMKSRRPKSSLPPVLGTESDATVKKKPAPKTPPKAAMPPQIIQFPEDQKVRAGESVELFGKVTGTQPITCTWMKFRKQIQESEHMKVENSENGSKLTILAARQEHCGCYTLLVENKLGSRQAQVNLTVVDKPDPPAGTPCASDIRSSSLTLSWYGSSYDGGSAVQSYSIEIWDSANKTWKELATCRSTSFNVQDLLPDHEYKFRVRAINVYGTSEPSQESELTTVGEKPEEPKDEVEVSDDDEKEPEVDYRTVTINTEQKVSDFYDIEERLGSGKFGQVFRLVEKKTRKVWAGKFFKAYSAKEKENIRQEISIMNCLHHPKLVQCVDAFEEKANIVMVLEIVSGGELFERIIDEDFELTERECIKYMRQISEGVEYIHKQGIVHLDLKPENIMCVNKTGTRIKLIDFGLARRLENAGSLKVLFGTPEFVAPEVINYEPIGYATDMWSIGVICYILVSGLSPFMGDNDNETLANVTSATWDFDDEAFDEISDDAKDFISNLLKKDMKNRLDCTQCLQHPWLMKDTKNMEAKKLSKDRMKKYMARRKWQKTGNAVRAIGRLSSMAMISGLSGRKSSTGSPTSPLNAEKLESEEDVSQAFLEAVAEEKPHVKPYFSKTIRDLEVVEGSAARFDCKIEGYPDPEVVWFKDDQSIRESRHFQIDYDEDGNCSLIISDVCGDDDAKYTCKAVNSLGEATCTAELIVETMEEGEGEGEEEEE
UniProt P13798, sequence (whole entry, looked up): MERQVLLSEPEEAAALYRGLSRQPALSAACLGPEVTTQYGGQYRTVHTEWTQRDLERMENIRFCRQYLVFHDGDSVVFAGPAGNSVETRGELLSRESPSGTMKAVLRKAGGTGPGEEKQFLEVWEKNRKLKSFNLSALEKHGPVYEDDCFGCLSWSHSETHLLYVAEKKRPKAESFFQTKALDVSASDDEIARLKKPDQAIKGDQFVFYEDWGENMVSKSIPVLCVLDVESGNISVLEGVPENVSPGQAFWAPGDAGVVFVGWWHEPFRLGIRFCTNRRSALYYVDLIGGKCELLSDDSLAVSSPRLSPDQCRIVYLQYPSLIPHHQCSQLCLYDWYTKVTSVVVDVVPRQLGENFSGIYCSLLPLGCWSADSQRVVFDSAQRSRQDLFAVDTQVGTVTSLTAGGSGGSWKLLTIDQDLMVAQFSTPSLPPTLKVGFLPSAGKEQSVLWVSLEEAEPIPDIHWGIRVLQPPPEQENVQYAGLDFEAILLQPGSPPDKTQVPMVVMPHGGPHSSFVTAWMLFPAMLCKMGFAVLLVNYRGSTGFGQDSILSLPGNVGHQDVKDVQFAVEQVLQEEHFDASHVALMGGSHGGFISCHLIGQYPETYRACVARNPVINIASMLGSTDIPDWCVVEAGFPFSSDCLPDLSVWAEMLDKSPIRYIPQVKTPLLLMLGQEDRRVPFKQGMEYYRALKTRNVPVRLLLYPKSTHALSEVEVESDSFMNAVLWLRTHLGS

SMILES | tested on | test | system | setting | scale | endpoint | value
CC(=O)Oc1ccc2c3c1O[C@H]1[C@@H](OC(C)=O)C=C[C@H]4[C@@H](C2)N(C)CC[C@@]341 |  |  | rat, whole blood | 1000 nM, 4 freeze-thaw cycles |  | stability bias | 1.41%
CC(C)C[C@@H]1NC(=O)[C@H](CC(C)C)NC(=O)[C@H](Cc2c[nH]c3ccccc23)NC(=O)[C@H](CO)NC(=O)[C@H](Cc2c[nH]c3ccccc23)NC(=O)[C@@H]2CCCN2C(=O)[C@H](CC(C)C)NC(=O)[C@H](Cc2c[nH]cn2)NC(=O)[C@@H]2CCCN2C(=O)[C@H](CC(N)=O)NC(=O)[C@H](C)NC(=O)[C@H](Cc2ccc(O)cc2)NC(=O)[C@H](CS)NC(=O)[C@H](CCCCNC(=O)CN2CCN(CC(=O)O)CCN(CC(=O)O)CCN(CC(=O)O)CC2)NC1=O [lutetium-177 labelled] |  |  | BALB/c mice, 4T1 tumour | iv, 3.7 MBq, 1 h, unblocked |  | tumour uptake | 6.97 ± 1.04 %ID
COc1cc2c(Oc3ccc4[nH]c(C)cc4c3F)ccnc2cc1OCC1(N)CC1 |  |  | paediatric refractory sarcoma patients | 12 mg |  | TBIL elevation incidence | 9.1%
Cc1c(-c2ccccc2)oc2c(C(=O)OC(C)(C)CN3CCCCC3)cccc2c1=O | African green monkey cells |  |  | 5 days |  | CC50 | 63.1 µM
Cc1cc(C(=O)NC(C)(C)COc2cccc3c2C(N)=NS(=O)(=O)N3)cc(C)n1 | Salmonella typhimurium | Ames test, confirmatory | TA98 | 3333 µg/plate, together with: rat liver S9 | reference: solvent control | revertant ratio | 1.4
COc1cc2c(Oc3ccc4[nH]c(C)cc4c3F)ccnc2cc1OCC1(N)CC1 | African green monkey cells |  |  | 5 days |  | CC50 | 5.25 µM
COC(=O)[C@@H]1[C@H]2CC[C@@H](C[C@@H]1O)N2C |  |  | rat, whole blood | 1000 nM, 4 freeze-thaw cycles |  | stability bias | 3.76%
O=C1c2c(O)c(=O)ccn2N([C@@H]2c3ccccc3SCc3c2ccc(F)c3F)[C@@H]2COCCN12 |  |  | BALB/c mouse | subcutaneous, 0.5 mg/kg q24h |  | Cmax | 34.3 ng/mL
CC[C@H](C)[C@H](NC(=O)[C@H](Cc1ccccc1)NC(=O)[C@H](CCC(=O)O)NC(=O)[C@H](CCCNC(=N)N)NC(=O)[C@H](C)NC(=O)[C@H](C)NC(=O)[C@H](CCC(N)=O)NC(=O)[C@H](CCC(=O)O)NC(=O)[C@H](CCC(=O)O)NC(=O)[C@H](CC(C)C)NC(=O)[C@H](Cc1ccc(O)cc1)NC(=O)[C@H](CO)NC(=O)[C@H](CO)NC(=O)[C@@H](NC(=O)[C@H](CC(=O)O)NC(=O)[C@H](CO)NC(=O)[C@@H](NC(=O)[C@H](Cc1ccccc1)NC(=O)[C@@H](NC(=O)CNC(=O)[C@H](CCC(=O)O)NC(=O)[C@H](C)NC(=O)CCc1c[nH]cn1)[C@@H](C)O)[C@@H](C)O)C(C)C)C(=O)N[C@@H](C)C(=O)N[C@@H](Cc1c[nH]c2ccccc12)C(=O)N[C@@H](CC(C)C)C(=O)N[C@H](C(=O)N[C@@H](CCCNC(=N)N)C(=O)NCC(=O)N[C@@H](CCCNC(=N)N)C(=O)N[C@@H](CCCCNC(=O)COCCOCCNC(=O)COCCOCCNC(=O)CC[C@H](NC(=O)CCCCCCCCCCCCCCCCC(=O)O)C(=O)O)C(=O)NCC(=O)NCC(=O)N[C@@H](CO)C(=O)N[C@@H](CCCCNc1c(NCCCCCN(O)C(=O)CCC(=O)NCCCCCN(O)C(=O)CCC(=O)NCCCCCN(O)C(C)=O)c(=O)c1=O)C(=O)O)C(C)C [zirconium-89 labelled] |  |  | rat, lung | iv, 3 nmol/kg, 72 h, ex vivo |  | tissue uptake | 1.09 %ID/g
O=C(c1ccc(Cl)cc1)N1CCN2C(=O)N(OC(=O)N3CCOc4ccccc43)C(=O)C2C1 (stereo not shown) | Acylamino-acid-releasing enzyme (APEH, Homo sapiens, UniProt P13798) | enzyme activity, inhibitor, MS-based ABPP | SW-620 conditioned medium | 10 µM, 1 h, 37 °C | reference: compound over DMSO, lower = stronger inhibition | median ratio | 1.12
CCC(=O)C(CC(C)N(C)C)(c1ccccc1)c1ccccc1 (stereo not shown) | African green monkey cells |  |  | 5 days |  | CC50 | 13.2 µM
CO[C@H]1C[C@@H]2CC[C@@H](C)[C@@](O)(O2)C(=O)C(=O)N2CCCC[C@H]2C(=O)O[C@H]([C@H](C)C[C@@H]2CC[C@@H](OC(=O)NCCOCCOCCOCCOCCOCCOCCOCCOCCC(=O)N3CCc4cc(Cn5nc(-c6ccc7oc(N)nc7c6)c6c(N)ncnc65)ccc4C3)[C@H](OC)C2)C[C@@H](O)[C@H](C)/C=C(\C)[C@@H](O)[C@@H](OC)C(=O)[C@H](C)C[C@H](C)/C=C/C=C/C=C/1C |  | dose-escalation trial | patients with advanced solid tumours | intravenous, all doses weekly |  | treatment-related serious AE incidence | 9%
CC[C@H](C)[C@@H]1NC(=O)[C@@H]2CCCN2C(=O)[C@H](CC(C)C)NC(=O)[C@H](CC(C)C)NC(=O)CNC(=O)[C@@H](NC(=O)[C@@H](NC(=O)[C@H](CC(=O)O)NC(=O)CNC(=O)[C@@H](NC(=O)[C@H](C)NC(=O)CNC(=O)[C@H](CCCCN)NC(=O)[C@H](CC(C)C)NC(=O)[C@H](CC(C)C)NC(=O)[C@H](CCCCN)NC(=O)CNC(=O)[C@@H](NC(=O)[C@@H](N)CC(C)C)C(C)C)C(C)C)C(C)C)CSSC[C@@H](C(=O)O)NC1=O |  | RNA-seq, refers to: Igsf6 | mouse, traumatic brain injury model, frontal cortex and hippocampus | dose not given | reference: TBI alone | log2 fold change | -2.21
CCCCCCC(C)(C)c1cc(O)c([C@H]2CC(=O)[C@H]3C[C@@H]2C3(C)C)c(OC(=O)/C=C/C(=O)O)c1 | African green monkey cells |  |  | 5 days |  | CC50 | 7.67 µM
CC(C)CC(=O)OC[C@H]1O[C@@](C#N)(c2ccc3c(N)ncnn23)[C@H](O)[C@@H]1O | Cytochrome P450 2A6 (CYP2A6, Homo sapiens, UniProt P11509) | metabolic stability | recombinant enzyme | 1 µM, 30 min |  | remaining compound | 99.4 ± 1.25%
O=c1ccc2ccccc2o1 | HepG2 | refers to: cell count |  | concentration not given, 1 h, ATP, GSH, MMP, ROS panel |  | probability of response | 0.01%
C[C@@H](O)[C@@H](CO)NC(=O)[C@@H](CCCNC(=N)N)NC(=O)[C@@H]1CCCN1C(=O)[C@@H]1CSSC[C@H](NC(=O)[C@H](Cc2ccccc2)NC(=O)CN2CCN(CC(=O)O)CCN(CC(=O)O)CCN(CC(=O)O)CC2)C(=O)N[C@@H](Cc2ccc(O)cc2)C(=O)N[C@@H](Cc2ccccc2)C(=O)N[C@@H](CCC(N)=O)C(=O)N[C@@H](CC(N)=O)C(=O)N1 [gallium-68 labelled] |  |  | healthy Wistar rat, stomach | intravenous, 8 MBq, 120 min, individual animals |  | tissue uptake | 0.03 %ID/g
CC(=O)O[C@H]1C=C[C@H]2[C@H]3Cc4ccc(O)c5c4[C@@]2(CCN3C)[C@H]1O5 |  |  | rat, whole blood | 10 nM, 4 months, -80 °C, long-term storage |  | stability bias | -15.5%
C[C@H]1CN(c2n[nH]c3nc(N[C@H]4CC[C@H](NS(=O)(=O)CCC(F)(F)F)CC4)ncc23)CCO1 | Myosin light chain kinase, smooth muscle (MYLK, Homo sapiens, UniProt Q15746) | inhibitor, Kinobeads competition profiling |  | 0.032 µM | reference: vehicle | relative abundance | 1.02
CN1[C@H]2CC[C@@H]1[C@@H](C(=O)O)[C@@H](OC(=O)c1ccccc1)C2 |  |  | rat whole blood | 500 nM, 4 freeze-thaw cycles |  | stability bias | 6.71%
CCC(=O)c1ccc2c(c1)N(CCCN1CCN(CCO)CC1)c1ccccc1S2 | African green monkey cells |  |  | 5 days |  | CC50 | 6.31 µM
COc1cc(Nc2ncc(F)c(Nc3ccc4c(n3)NC(=O)C(C)(C)O4)n2)cc(OC)c1OC | Vasoactive intestinal polypeptide receptor 1 (VIPR1, Homo sapiens, UniProt P32241) |  |  |  |  | IC50 | > 10 µM

Excerpt of the above:
SMILES | tested on | test | system | setting | scale | endpoint | value
O=c1ccc2ccccc2o1 | HepG2 | refers to: cell count |  | concentration not given, 1 h, ATP, GSH, MMP, ROS panel |  | probability of response | 0.01%
CCCCCCC(C)(C)c1cc(O)c([C@H]2CC(=O)[C@H]3C[C@@H]2C3(C)C)c(OC(=O)/C=C/C(=O)O)c1 | African green monkey cells |  |  | 5 days |  | CC50 | 7.67 µM
